Results from different studies.
Each numbered part is a random draw from the data of one study; scales do not carry over between parts.
Chain of UniProt O95382 (whole entry, looked up): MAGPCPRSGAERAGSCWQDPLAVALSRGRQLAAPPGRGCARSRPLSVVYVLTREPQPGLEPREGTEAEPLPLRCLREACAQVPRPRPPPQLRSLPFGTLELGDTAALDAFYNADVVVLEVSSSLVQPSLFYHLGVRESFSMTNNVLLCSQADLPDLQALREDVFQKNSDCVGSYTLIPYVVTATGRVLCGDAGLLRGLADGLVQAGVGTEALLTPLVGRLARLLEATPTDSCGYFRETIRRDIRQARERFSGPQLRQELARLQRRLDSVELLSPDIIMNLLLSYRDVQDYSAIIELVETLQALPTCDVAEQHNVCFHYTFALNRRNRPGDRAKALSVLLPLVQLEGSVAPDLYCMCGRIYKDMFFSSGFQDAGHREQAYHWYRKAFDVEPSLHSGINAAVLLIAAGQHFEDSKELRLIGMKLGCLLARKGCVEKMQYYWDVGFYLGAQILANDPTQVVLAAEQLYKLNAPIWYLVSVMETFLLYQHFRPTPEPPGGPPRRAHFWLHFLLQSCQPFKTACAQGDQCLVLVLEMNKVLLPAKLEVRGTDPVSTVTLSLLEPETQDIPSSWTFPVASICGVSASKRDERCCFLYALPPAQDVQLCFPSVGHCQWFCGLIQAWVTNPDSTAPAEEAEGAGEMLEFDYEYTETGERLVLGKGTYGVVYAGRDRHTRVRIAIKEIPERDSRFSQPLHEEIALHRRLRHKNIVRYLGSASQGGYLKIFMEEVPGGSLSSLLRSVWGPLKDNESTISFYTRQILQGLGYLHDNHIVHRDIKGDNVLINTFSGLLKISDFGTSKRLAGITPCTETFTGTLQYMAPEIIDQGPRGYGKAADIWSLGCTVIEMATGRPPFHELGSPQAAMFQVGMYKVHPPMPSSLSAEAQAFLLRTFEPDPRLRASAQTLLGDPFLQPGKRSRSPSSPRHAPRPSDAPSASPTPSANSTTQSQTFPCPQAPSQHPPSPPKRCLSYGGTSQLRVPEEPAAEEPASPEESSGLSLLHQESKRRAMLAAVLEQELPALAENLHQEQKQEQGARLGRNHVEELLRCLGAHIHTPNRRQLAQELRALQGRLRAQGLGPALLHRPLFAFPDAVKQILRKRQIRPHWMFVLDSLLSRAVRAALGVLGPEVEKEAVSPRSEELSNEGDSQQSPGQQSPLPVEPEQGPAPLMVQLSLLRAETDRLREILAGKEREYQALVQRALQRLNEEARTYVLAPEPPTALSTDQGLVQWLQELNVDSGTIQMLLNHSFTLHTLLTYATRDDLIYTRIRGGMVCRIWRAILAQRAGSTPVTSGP
Chain of UniProt Q16644 (whole entry, looked up): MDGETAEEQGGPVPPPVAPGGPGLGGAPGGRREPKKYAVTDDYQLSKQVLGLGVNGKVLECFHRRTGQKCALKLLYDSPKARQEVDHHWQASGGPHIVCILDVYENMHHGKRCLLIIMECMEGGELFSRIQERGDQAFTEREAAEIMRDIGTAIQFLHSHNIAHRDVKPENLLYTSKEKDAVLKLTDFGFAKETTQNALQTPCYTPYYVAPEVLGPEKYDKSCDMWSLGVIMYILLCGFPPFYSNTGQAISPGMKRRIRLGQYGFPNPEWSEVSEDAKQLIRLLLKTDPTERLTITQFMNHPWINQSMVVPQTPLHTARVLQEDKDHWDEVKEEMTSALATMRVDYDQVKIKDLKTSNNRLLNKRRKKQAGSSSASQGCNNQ
Chain of UniProt P54762 (whole entry, looked up): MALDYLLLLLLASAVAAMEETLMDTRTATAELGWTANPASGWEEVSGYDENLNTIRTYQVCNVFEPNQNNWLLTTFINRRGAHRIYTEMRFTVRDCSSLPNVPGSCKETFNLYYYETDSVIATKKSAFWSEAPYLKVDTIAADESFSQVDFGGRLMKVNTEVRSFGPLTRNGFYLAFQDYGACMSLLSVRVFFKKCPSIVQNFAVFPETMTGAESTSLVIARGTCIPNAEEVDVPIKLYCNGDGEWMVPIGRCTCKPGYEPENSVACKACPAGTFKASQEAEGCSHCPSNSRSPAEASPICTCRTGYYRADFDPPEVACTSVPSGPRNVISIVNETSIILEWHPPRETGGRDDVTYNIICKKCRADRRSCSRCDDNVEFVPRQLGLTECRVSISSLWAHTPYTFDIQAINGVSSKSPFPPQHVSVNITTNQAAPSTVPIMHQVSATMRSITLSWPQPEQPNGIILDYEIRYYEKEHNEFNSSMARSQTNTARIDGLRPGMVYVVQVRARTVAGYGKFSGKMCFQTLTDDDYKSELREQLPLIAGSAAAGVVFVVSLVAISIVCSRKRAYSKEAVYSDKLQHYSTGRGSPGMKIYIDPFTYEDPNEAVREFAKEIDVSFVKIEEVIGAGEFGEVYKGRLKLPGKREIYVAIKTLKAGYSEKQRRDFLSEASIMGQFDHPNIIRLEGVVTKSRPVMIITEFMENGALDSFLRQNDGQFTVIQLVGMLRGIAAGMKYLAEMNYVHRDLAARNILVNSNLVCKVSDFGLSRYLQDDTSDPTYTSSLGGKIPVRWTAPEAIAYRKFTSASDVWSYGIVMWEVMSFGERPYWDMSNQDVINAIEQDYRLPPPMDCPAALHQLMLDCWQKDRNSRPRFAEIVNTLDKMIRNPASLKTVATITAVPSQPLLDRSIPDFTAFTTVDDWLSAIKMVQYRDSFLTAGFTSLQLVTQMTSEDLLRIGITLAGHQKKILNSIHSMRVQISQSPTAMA
Chain of UniProt O75716 (whole entry, looked up): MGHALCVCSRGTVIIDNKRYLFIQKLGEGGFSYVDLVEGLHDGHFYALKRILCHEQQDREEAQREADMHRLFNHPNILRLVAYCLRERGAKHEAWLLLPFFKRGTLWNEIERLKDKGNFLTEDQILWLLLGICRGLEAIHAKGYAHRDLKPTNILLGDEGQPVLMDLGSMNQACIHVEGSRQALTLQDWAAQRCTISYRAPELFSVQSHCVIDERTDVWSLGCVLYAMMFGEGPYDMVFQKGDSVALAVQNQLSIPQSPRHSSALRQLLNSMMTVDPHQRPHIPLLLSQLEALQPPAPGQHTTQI
Chain of UniProt P54760 (whole entry, looked up): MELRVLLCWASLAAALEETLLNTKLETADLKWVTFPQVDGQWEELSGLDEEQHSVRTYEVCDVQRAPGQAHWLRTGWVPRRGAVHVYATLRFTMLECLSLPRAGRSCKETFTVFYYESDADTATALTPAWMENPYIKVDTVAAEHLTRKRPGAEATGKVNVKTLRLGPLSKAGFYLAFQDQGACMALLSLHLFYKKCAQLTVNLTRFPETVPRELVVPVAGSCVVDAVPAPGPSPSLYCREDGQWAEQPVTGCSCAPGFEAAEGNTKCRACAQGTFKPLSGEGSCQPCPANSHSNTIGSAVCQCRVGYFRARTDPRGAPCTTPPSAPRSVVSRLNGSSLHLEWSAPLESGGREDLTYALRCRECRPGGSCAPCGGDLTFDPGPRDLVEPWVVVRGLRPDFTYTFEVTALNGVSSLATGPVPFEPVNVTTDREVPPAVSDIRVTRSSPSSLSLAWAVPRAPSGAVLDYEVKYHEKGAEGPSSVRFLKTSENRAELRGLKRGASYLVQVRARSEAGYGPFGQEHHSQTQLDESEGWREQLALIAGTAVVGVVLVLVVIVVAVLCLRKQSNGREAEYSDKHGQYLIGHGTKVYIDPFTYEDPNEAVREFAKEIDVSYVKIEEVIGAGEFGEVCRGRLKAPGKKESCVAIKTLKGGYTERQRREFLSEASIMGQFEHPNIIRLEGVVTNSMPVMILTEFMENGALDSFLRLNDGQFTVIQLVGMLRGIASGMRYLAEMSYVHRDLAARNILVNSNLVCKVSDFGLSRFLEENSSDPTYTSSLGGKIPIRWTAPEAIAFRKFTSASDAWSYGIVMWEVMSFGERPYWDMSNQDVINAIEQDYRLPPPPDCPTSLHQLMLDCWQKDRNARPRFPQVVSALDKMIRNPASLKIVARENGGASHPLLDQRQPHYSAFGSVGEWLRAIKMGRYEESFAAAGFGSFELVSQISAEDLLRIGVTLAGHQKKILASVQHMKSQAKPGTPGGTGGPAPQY
Chain of UniProt Q16816 (whole entry, looked up): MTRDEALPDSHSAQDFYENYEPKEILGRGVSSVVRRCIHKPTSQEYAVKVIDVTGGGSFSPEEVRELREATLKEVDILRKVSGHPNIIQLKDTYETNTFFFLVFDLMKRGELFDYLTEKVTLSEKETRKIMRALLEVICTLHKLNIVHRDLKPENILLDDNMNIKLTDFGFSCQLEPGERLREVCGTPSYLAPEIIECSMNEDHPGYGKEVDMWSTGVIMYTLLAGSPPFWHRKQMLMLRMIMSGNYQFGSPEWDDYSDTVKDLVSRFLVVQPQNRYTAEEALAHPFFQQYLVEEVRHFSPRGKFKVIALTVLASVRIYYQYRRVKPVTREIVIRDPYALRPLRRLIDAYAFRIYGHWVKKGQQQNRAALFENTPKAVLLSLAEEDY
Chain of UniProt Q00534 (whole entry, looked up): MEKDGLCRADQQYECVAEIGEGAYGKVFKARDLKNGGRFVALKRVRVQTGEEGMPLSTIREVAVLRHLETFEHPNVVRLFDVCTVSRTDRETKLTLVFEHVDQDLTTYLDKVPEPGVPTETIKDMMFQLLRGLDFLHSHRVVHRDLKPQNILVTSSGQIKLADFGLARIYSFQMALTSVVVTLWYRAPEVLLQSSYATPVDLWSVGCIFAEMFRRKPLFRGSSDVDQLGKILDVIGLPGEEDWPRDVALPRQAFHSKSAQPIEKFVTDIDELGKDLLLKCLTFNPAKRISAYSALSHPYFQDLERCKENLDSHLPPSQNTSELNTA

Study 1
Structure (SMILES): O=C(NCc1ncc(C(F)(F)F)cc1Cl)c1ccc2c(c1)C1(CCS(=O)(=O)CC1)[C@@H](C1CC1)N2S(=O)(=O)c1ccc(F)cc1
Effect on: cell-free assay
Technique: competition with immobilised ligand
Concentration: 1 µM
target | remaining binding [%]
Dual specificity tyrosine-phosphorylation-regulated kinase 1B (DYRK1B, Homo sapiens, UniProt Q9Y463) | 100
Beta-adrenergic receptor kinase 1 (GRK2, Homo sapiens, UniProt P25098) | 80
Testis-specific serine/threonine-protein kinase 1 (TSSK1B, Homo sapiens, UniProt Q9BXA7) | 100
Mitotic checkpoint serine/threonine-protein kinase BUB1 (BUB1, Homo sapiens, UniProt O43683) | 1.9
Serine/threonine-protein kinase pim-3 (PIM3, Homo sapiens, UniProt Q86V86) | 85
Serine/threonine-protein kinase STK11 (STK11, Homo sapiens, UniProt Q15831) | 100
Mast/stem cell growth factor receptor Kit (KIT, Homo sapiens, UniProt P10721) | 82
Serine/threonine-protein kinase Nek4 (NEK4, Homo sapiens, UniProt P51957) | 99
Glycogen synthase kinase-3 beta (GSK3B, Homo sapiens, UniProt P49841) | 90
MAP kinase-activated protein kinase 2 (MAPKAPK2, Homo sapiens, UniProt P49137) | 100
Proto-oncogene tyrosine-protein kinase receptor Ret (RET, Homo sapiens, UniProt P07949) | 100
MAP/microtubule affinity-regulating kinase 4 (MARK4, Homo sapiens, UniProt Q96L34) | 100
G protein-coupled receptor kinase 3 (GRK3, Homo sapiens, UniProt P35626) | 100
Serine/threonine-protein kinase MRCK beta (CDC42BPB, Homo sapiens, UniProt Q9Y5S2) | 100
Ankyrin repeat and protein kinase domain-containing protein 1 (ANKK1, Homo sapiens, UniProt Q8NFD2) | 76
cAMP-dependent protein kinase catalytic subunit PRKX (PRKX, Homo sapiens, UniProt P51817) | 100
Membrane-associated tyrosine- and threonine-specific cdc2-inhibitory kinase (PKMYT1, Homo sapiens, UniProt Q99640) | 92
Mitogen-activated protein kinase kinase kinase 6 (MAP3K6, Homo sapiens, UniProt O95382) | 68
Cyclin-dependent kinase 13 (CDK13, Homo sapiens, UniProt Q14004) | 89

Study 2
Species: human
Medium: microsomes or S9
Concentration: 2 µM
Time: 0.5 h
Compound | remaining compound
CC(=O)NCCOC(=O)c1ccc(Cl)c(S(=O)(=O)N(C)C)c1 | 21.5%
O=c1[nH]c(-c2ccc(F)cc2)c(-c2ccc(F)cc2)c(=O)n1Cc1ccc(Cl)cc1Cl | > 99%
COCC(=O)Cc1nc(N)nc(Nc2ccc(C)cc2)n1 | 71.9%
Cc1ccc(-c2noc(CCC(=O)N(C)C)n2)c(=O)n1C(C)C | 75.4%
O[C@@H]1C[C@@H](c2nnc3n2CCOC3)C[C@@H]1CNc1ncc(Cl)cn1 | 76.8%
Cc1noc(C)c1S(=O)(=O)N1CCCC(Oc2nc(C(C)C)nc3c2CCOCC3)C1 (centres unmarked) | 0.288%
Cc1ccc(NCc2nc3n(n2)CCCCC3)c(C)c1 | 81.2%
CCOC(C#Cc1cncc(I)c1N)OCC | 5.33%
CCCS(=O)(=O)c1nc2ccc(NS(=O)(=O)c3ccc(F)c(Cl)c3)cc2s1 | 9.03%
Cc1nn(CC(O)Cn2cnc3c2c(=O)n(C)c(=O)n3C)c(C)c1Br (centres unmarked) | 67%

Study 3
Structure (SMILES): Nc1nc(Nc2ccc(S(N)(=O)=O)cc2)nn1C(=O)c1c(F)cccc1F
Effect on: enzyme activity
Mode: inhibitor
Concentration: 0.5 µM
Reference: control
target | remaining activity
Dual specificity tyrosine-phosphorylation-regulated kinase 3 (DYRK3, Homo sapiens, UniProt O43781) | 101%
Ephrin type-A receptor 4 (EPHA4, Homo sapiens, UniProt P54764) | 91.3%
Homeodomain-interacting protein kinase 2 (HIPK2, Homo sapiens, UniProt Q9H2X6) | 72.8%
Serine/threonine-protein kinase 16 (STK16, Homo sapiens, UniProt O75716) | 48.5%
Serine/threonine-protein kinase WNK3 (WNK3, Homo sapiens, UniProt Q9BYP7) | 98.3%
Testis-specific serine/threonine-protein kinase 2 (TSSK2, Homo sapiens, UniProt Q96PF2) | 103%
Tyrosine-protein kinase Srms (SRMS, Homo sapiens, UniProt Q9H3Y6) | 96.5%
Cyclin-dependent kinase 4, with cyclin D3 (CDK4, Homo sapiens, UniProt P11802) | 34.7%
Calcium/calmodulin-dependent protein kinase type II subunit beta (CAMK2B, Homo sapiens, UniProt Q13554) | 99.7%
MAP kinase-activated protein kinase 3 (MAPKAPK3, Homo sapiens, UniProt Q16644) | 98%
Homeodomain-interacting protein kinase 4 (HIPK4, Homo sapiens, UniProt Q8NE63) | 67.7%
Serine/threonine-protein kinase 17A (STK17A, Homo sapiens, UniProt Q9UEE5) | 83.9%
Phosphorylase b kinase gamma catalytic chain, skeletal muscle/heart isoform (PHKG1, Homo sapiens, UniProt Q16816) | 102%
Ephrin type-B receptor 1 (EPHB1, Homo sapiens, UniProt P54762) | 84.1%
Ephrin type-B receptor 4 (EPHB4, Homo sapiens, UniProt P54760) | 81%
3-phosphoinositide-dependent protein kinase 1 (PDPK1, Homo sapiens, UniProt O15530) | 92.3%
Cyclin-dependent kinase 6, with cyclin D3 (CDK6, Homo sapiens, UniProt Q00534) | 36.2%

Other studies, line by line
Structure (SMILES) | system | conditions | measurement | value
CC(=O)N[C@@H](Cc1c[nH]c2ccccc12)C(=O)N[C@@H](CCC(=O)C=[N+]=[N-])C(=O)OC(C)C | C57BL/6 CES1-/- mice, EL4 tumour-bearing, tumour | dose not given | concentration | not detected

For quick reference, copied from above (study 3):
target | remaining activity
Tyrosine-protein kinase Srms (SRMS, Homo sapiens, UniProt Q9H3Y6) | 96.5%
Cyclin-dependent kinase 4, with cyclin D3 (CDK4, Homo sapiens, UniProt P11802) | 34.7%
Calcium/calmodulin-dependent protein kinase type II subunit beta (CAMK2B, Homo sapiens, UniProt Q13554) | 99.7%
MAP kinase-activated protein kinase 3 (MAPKAPK3, Homo sapiens, UniProt Q16644) | 98%
